Measurements collected from several papers.
Compare with care: the assays were run in different laboratories. “And” joins repeats or separate records; there may be more than shown. ± marks the error that the study gave.
ptpB: Triple specificity protein phosphatase PtpB (ptpB, Mycobacterium tuberculosis, UniProt I6WXK4)
UniProt I6WXK4, sequence (whole entry, looked up): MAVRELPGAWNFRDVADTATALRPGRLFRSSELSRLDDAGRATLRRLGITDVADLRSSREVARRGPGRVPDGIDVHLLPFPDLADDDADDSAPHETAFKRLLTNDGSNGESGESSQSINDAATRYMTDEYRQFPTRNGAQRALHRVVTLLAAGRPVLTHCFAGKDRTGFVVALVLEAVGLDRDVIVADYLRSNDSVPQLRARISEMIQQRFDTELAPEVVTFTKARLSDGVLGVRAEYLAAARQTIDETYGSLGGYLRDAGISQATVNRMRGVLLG
serotonin receptor-like protein: serotonin receptor-like protein (Schistosoma mansoni, UniProt A0A173FEI8)
UniProt Q9Y2T6, sequence (whole entry, looked up): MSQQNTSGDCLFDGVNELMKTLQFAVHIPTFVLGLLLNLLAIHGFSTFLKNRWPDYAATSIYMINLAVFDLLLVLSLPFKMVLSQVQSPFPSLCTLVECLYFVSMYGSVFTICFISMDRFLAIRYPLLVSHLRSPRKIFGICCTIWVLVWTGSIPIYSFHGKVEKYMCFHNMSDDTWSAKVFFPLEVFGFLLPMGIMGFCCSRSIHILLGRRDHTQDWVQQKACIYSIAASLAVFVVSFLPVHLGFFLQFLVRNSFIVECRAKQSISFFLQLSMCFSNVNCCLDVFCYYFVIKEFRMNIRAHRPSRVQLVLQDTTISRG
UniProt P21554, sequence (whole entry, looked up): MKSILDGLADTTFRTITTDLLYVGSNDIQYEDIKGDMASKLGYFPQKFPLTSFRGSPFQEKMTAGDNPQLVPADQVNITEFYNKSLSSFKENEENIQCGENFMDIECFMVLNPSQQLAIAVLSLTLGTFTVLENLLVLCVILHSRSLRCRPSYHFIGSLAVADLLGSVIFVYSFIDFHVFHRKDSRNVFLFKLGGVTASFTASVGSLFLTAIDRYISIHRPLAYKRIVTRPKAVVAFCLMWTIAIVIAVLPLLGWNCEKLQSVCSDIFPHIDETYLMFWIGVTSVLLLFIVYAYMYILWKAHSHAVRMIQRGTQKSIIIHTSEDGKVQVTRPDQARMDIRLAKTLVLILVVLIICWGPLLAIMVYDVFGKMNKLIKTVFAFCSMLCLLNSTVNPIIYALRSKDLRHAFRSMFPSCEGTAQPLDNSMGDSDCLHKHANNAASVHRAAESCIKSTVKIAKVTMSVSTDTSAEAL
UniProt P9WPA5, sequence (whole entry, looked up): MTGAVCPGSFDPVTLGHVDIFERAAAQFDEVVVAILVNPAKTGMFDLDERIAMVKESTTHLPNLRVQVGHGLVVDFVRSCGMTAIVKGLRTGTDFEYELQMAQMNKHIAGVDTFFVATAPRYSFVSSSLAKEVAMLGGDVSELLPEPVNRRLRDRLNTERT
UniProt P29371, sequence (whole entry, looked up): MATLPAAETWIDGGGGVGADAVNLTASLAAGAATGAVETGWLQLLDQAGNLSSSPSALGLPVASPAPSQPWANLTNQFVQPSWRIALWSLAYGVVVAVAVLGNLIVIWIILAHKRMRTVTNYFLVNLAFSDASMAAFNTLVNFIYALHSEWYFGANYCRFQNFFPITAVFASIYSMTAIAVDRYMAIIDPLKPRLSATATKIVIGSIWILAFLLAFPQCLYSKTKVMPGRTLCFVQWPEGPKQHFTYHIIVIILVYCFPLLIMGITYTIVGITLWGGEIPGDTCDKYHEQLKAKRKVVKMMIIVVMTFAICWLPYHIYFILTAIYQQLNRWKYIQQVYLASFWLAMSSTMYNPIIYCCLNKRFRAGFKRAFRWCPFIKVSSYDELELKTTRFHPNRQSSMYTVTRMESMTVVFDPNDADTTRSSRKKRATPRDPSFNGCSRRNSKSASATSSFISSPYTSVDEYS
UniProt O00311, sequence (whole entry, looked up): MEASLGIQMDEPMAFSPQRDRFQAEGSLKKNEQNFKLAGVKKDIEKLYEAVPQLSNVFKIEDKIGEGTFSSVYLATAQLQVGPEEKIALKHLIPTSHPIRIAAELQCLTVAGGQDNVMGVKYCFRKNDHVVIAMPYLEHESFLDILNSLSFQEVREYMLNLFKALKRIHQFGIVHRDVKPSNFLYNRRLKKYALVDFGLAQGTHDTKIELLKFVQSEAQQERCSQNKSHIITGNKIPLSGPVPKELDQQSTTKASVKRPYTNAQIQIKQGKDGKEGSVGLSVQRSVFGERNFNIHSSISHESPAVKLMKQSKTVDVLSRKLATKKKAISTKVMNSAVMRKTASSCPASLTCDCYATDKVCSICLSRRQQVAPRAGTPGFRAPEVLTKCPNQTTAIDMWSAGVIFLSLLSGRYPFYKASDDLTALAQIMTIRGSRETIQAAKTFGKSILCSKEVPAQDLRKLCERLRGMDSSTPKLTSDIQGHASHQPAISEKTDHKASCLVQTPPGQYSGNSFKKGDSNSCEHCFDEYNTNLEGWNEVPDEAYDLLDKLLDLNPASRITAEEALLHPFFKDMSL
UniProt P97678, sequence (whole entry, looked up): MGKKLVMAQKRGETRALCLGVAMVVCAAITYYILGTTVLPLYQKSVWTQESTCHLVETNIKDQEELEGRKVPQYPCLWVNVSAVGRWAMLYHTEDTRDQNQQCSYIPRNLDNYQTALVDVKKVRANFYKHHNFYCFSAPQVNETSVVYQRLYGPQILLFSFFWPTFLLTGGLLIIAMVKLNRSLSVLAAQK

Compound	target or system	test	test system	conditions	scale	measurement	value
O=C1Nc2ccc(S(=O)(=O)N3CCOCC3)c3cccc1c23	ptpB	enzyme activity, inhibitor	–	concentration not given	–	activity	inactive
CCCCCCCC[C@H]1O[C@H]1C/C=C/C=C/[C@H](O)CC(=O)NC1=C[C@](C)(CC)OC1=O	Na(+)-translocating NADH-quinone reductase subunit B, whole Na+-NQR complex (nqrB, Vibrio cholerae serotype O1, UniProt Q9KPS2)	isothermal titration calorimetry	–	20 °C	–	ΔH	-35 ± 0.96 kcal/mol
Oc1ccc2c3c1O[C@H]1[C@@H](O)CC[C@@]4(O)[C@@H](C2)N(CC2CCC2)CC[C@]314	GPR55 (Homo sapiens, UniProt Q9Y2T6)	β-arrestin recruitment, TANGO luminescence	–	concentration not given	reference: basal luminescence	log2 fold change	0.181
N=C(N)NCCC[C@H](NC(=O)[C@@H](Cc1ccccc1)NC(=O)[C@H](Cc1c[nH]cn1)NC(=O)CCCc1ccccc1)C(=O)N[C@@H](Cc1c[nH]c2ccccc12)C(=O)NCC(=O)N[C@@H](CCCCNC(=O)CCCCCNC(=O)CN1CCN(CC(=O)O)CCN(CC(=O)O)CCN(CC(=O)O)CC1)C(N)=O [actinium-225 labelled]	–	five-compartment model fit	SCID mice, A-375 and A-375/MC1R xenografts	–	–	kidney reverse transfer rate constant (ko)	0.0035 h⁻¹
Cc1cccc(N2CCN(C(=O)C3CCN(Cc4nc(-c5ccc(Cl)cc5)oc4C)CC3)CC2)c1C	Vero-E6	CellTiter-Glo ATP	–	concentration not given, 72 h, retest 8-point duplicates	reference: DMSO 0%, hyamine -100%, more negative, more toxic	cytotoxicity efficacy	0%
NCCc1c[nH]c2ccc(Br)cc12	serotonin receptor-like protein	cAMP level, agonist, GloSensor luminescence	–	–	reference: 5-HT maximal response	Emax	65 ± 1%
CN[C@]1(c2ccccc2Cl)CCCCC1=O	sigma receptor	radioligand binding, agonist, radioligand displacement	–	30 µM	–	inhibition	23%
CNS(=O)(=O)c1ccc2c3c(cccc13)C(=O)N2	ptpB	enzyme activity, inhibitor	–	concentration not given	–	activity	inactive
COC(=O)c1cccc(N2N=C(C)C(C(=O)Nc3cccc(C(C)(F)F)c3)C2=O)c1 (centres unmarked)	Acetyl-CoA synthetase (Cryptococcus neoformans, UniProt J9VFT1)	–	–	50 µM	–	remaining activity	104% and 109%
CNCCc1c[nH]c2ccccc12	serotonin receptor-like protein	cAMP level, agonist, GloSensor luminescence	–	–	reference: 5-HT maximal response	Emax	15 ± 1%
CO[C@H]1/C=C/O[C@@]2(C)Oc3c(C)c(O)c4c(O)c(c(/C=N/N5CCN(C6CCCC6)CC5)c(O)c4c3C2=O)NC(=O)/C(C)=C\C=C\[C@H](C)[C@H](O)[C@@H](C)[C@@H](O)[C@@H](C)[C@H](OC(C)=O)[C@@H]1C	dppA (Mycobacterium tuberculosis, UniProt I6X811)	thermal shift	–	dose response	–	thermal stabilization	> 2 °C
COC(=O)[C@@H](NC(=O)c1nn(Cc2ccc(F)cc2)c2ccccc12)C(C)(C)C	Cannabinoid receptor 1, with Gi3 (CNR1, Homo sapiens, UniProt P21554)	GTP turnover, agonist, refers to: Gi3 Gα subtype	–	–	–	maximal efficacy	133%
C[C@H]1CN(c2n[nH]c3nc(N[C@H]4CC[C@H](NS(=O)(=O)CCC(F)(F)F)CC4)ncc23)CCO1	CDC7 (Homo sapiens, UniProt O00311)	inhibitor, Kinobeads competition profiling	–	0.032 µM	reference: vehicle	relative abundance	1.03
COC(=O)C[C@@H]1N=C(c2ccc(F)c(Cl)c2)c2cc(OC)ccc2-n2c(C)nnc21	BRD4 and BRD2 full-length, human	binding, SPR	–	–	reference: BRD4 over BRD2, higher = BRD4-selective	selectivity ratio	~2.6 fold
CN1CC[C@@]2(C)c3cc(OC(=O)Nc4ccccc4)ccc3N(C)[C@@H]12	human nicotinic α4β4 receptor	radioligand binding	–	10 µM, with: [3H]epibatidine	–	inhibition	8.3%
C[C@]12N[C@H](Cc3ccccc31)c1ccccc12	NMDA receptor GluN1/GluN2D lacking NTD	ion current, inhibitor, oocyte voltage clamp	–	200 nM	–	onset time constant	5.5 ± 0.7 s
C=CCN1CC[C@]23c4c5ccc(O)c4O[C@H]2C(=O)CC[C@]3(O)[C@H]1C5	TACR3 (Homo sapiens, UniProt P29371)	–	–	concentration not given	–	inhibition	16.3%
O=C1NC(=O)N(c2ccc(F)cc2)C(=O)/C1=C/c1cc(Br)ccc1OCc1cccc([N+](=O)[O-])c1	Calcium-activated potassium channel subunit beta-1, with BK alpha subunit (Kcnmb1, Rattus norvegicus, UniProt P97678)	BK channel current	CHO with alpha and beta1	–	–	Hill coefficient	0.49 ± 0.12
COc1ccc2[nH]cc(CCN)c2c1	serotonin receptor-like protein	cAMP level, agonist, GloSensor luminescence	–	–	reference: 5-HT maximal response	Emax	49 ± 11%
O=C1C=CC(=O)c2ccccc21	Reaction center protein L chain, QB site (pufL, Cereibacter sphaeroides, UniProt P0C0Y8)	–	Rhodobacter sphaeroides, reaction centres	with: kBP 0 s^-1	–	free energy difference	480 meV
CCc1ccc(Sc2cc(C(=O)NCCCN3CCCC(C)C3)c3ccccc3n2)cc1 (centres unmarked)	Vero-E6	CellTiter-Glo ATP	–	concentration not given, 72 h, retest 8-point duplicates	reference: DMSO 0%, hyamine -100%, more negative, more toxic	cytotoxicity efficacy	-18.7%
O=C1Nc2ccc(S(=O)(=O)NCc3ccccc3)c3cccc1c23	ptpB	enzyme activity, inhibitor	–	concentration not given	–	activity	inactive
O=C(O)c1cnn(-c2ccccc2)c1OCCCc1c[nH]c2ccccc12	Phosphopantetheine adenylyltransferase (coaD, Mycobacterium tuberculosis, UniProt P9WPA5)	ITC	–	concentration not given	ligand per protomer	binding stoichiometry	0.6

For quick reference, copied from above:
Compound	target or system	test	test system	conditions	scale	measurement	value
CNCCc1c[nH]c2ccccc12	serotonin receptor-like protein	cAMP level, agonist, GloSensor luminescence	–	–	reference: 5-HT maximal response	Emax	15 ± 1%
COC(=O)[C@@H](NC(=O)c1nn(Cc2ccc(F)cc2)c2ccccc12)C(C)(C)C	Cannabinoid receptor 1, with Gi3 (CNR1, Homo sapiens, UniProt P21554)	GTP turnover, agonist, refers to: Gi3 Gα subtype	–	–	–	maximal efficacy	133%
